Experimental data pooled from the literature.
Each line is one published result; not all experiments were run side by side. ± gives the spread as reported.

| Structure (SMILES) | target or system | test | system | conditions | scale | measurement | result |
| --- | --- | --- | --- | --- | --- | --- | --- |
| c1ccc(-c2n[nH]cc2-c2ccnc3ccccc23)nc1 | GCN2 (Candida albicans) | kinase binding, MIB/MS competition | Candida albicans lysate | 1 µM | baseline: DMSO | log2 fold change | -0.24 |
| C[n+]1ccc(/C=N/NC(=O)N/N=C/c2cc[n+](C)cc2)cc1 | myc22 MYC G4-DNA parallel | FRET melting | – | 1 µM, K1 buffer, DNA 0.2 µM | – | ΔTm | 2.4 ± 0.6 °C |
| CN1CCCNC(=O)c2cccc(c2)C(=O)NCCCN(C)CCCNc2cccc3c2C(=O)c2cccc(c2C3=O)NCCC1 | SAS | RNA-Seq, refers to: TDP2 mRNA | – | 1 µM, 6 h | baseline: untreated cells | log2 fold change | -1.27 |
| CCN(C(=O)c1cc(F)ccc1Oc1nncnc1N1CCC2(C1)CN([C@H](CCCN(C)CCOC)C(C)C)C2)C(C)C | ACHN | cell growth or viability | – | 72 h | – | GI50 | > 10 µM |
| C=C(NC(=O)c1csc(-c2nc3c(cc2O)-c2nc(cs2)C(=O)NC(C(C)O)C(=O)NC(=C(C)OC)c2nc(cs2)C(=O)NC2c4nc(cs4)C(=O)NC(COC(=O)c4c5c6c(cccc6n4O)COC(=O)C(OC4CC(C)(O)C(N(C)C)C(C)O4)C2OC5)c2nc-3cs2)n1)C(N)=O (stereo not drawn) | Staphylococcus aureus | – | MRSA ATCC 43300 | 1/2 × MIC | – | post-antibiotic effect | < 0.6 h |
| CNS(=O)(=O)Nc1nccc(Cc2c(C)c3ccc(Oc4ncccc4F)cc3oc2=O)c1F | SAOS-2 | cell viability | – | 7 days | – | IC50 | > 1 µM |
| Nc1ncc(-c2cc(-c3cnn(CC(F)(F)F)c3)ncc2F)nc1C(=O)NC1CNCC(F)C1 (stereo not drawn) | VRK2 | KINOMEscan | – | 1 µM | baseline: DMSO control | remaining binding | 53% |
| O=C(N/N=C/c1cc[n+](CC2CC2)c2ccccc12)c1cncc(C(=O)N/N=C/c2cc[n+](CC3CC3)c3ccccc23)n1 | myc22 MYC G4-DNA parallel | FRET melting | – | 1 µM, K1 buffer, DNA 0.2 µM, added: ds26 10 µM | – | ΔTm | 20.7 ± 0.3 °C |
| COc1cc(O)ccc1CCC(c1ccc(O)cc1)c1cc2c(c(C)c1O)OC(c1ccc(O)cc1)CC2 (mixture of isomers) | – | – | human blood | 10 µM, added: A23187 | – | EPA level | 74600 ± 16300 pg/mL |
| C=CC(=O)Nc1cccc(Cn2ncc3cnc(Nc4cnn(CCOC)c4)nc32)c1 | HPK1 human | binding, KINOMEscan | – | 100 nM | lower = stronger binding | percent of control | 54% |
| COc1ccc(C(=O)CCc2cc(C(CCc3ccc(O)cc3OC)c3ccc(O)cc3)c(O)cc2OC)cc1 (racemic) | – | – | human blood | 0.3 µM, added: A23187 | – | DHA level | 127000 ± 36400 pg/mL |
| NCCOCCO.O=C(O)C(Cl)Cl | Eleusine indica | – | – | 15 mg/mL, 21 days, post-emergence, greenhouse | – | herbicidal inhibition | 0% |
| O=C(N/N=C/c1cc[n+](Cc2ccccc2)c2ccccc12)c1cccc(C(=O)N/N=C/c2cc[n+](Cc3ccccc3)c3ccccc23)n1 | myc22 MYC G4-DNA parallel | FRET melting | – | 1 µM, K1 buffer, DNA 0.2 µM | – | ΔTm | 19.5 ± 0.9 °C |
| CN1CCC[C@]1(C)/C=C/S(=O)(=O)NC(=O)Nc1c2c(cc3c1CCC3)CCC2 | – | – | human, whole blood ex vivo | 400 mg single dose, 6 h, single ascending dose, added: LPS and ATP | – | IL-18 inhibition | 80.1% |
| CC[n+]1cccc2cc(/C=N/NC(=O)C(=O)N/N=C/c3ccc4c(ccc[n+]4CC)c3)ccc21 | myc22 MYC G4-DNA parallel | FRET melting | – | 1 µM, K1 buffer, DNA 0.2 µM, added: ds26 10 µM | – | ΔTm | 4.6 ± 0.4 °C |
| COC1CN([C@H]2CC[C@H]([C@@]3(C)Oc4c(Cl)cc(C(=O)NCc5c(SC)cc(C)[nH]c5=O)c(C)c4O3)CC2)C1 | – | RNA-seq, refers to: SORCS2 mouse homolog | mouse, HT-1376 xenograft, whole blood | dose not given | baseline: vehicle | log2 fold change | 0.342 |
| CC[n+]1cccc2cc(/C=N/NC(=O)c3ccc4ccc(C(=O)N/N=C/c5ccc6c(ccc[n+]6CC)c5)nc4n3)ccc21 | myc22 MYC G4-DNA parallel | FRET melting | – | 1 µM, K1 buffer, DNA 0.2 µM, added: ds26 10 µM | – | ΔTm | 15.5 ± 0.6 °C |
| CCN(CC)CC(=O)Nc1cccc(-n2cc(-c3ccc4ccc(-c5cn(-c6cccc(NC(=O)CN(CC)CC)c6)nn5)cc4c3)nn2)c1 | RCC4 | PCR array, refers to: LEP | – | 5 x IC50, 2 h, normoxia | baseline: untreated | fold regulation | 1.1 |
| C[n+]1cccc2cc(/C=N/NC(=O)c3cccc(C(=O)N/N=C/c4ccc5c(ccc[n+]5C)c4)n3)ccc21 | myc22 MYC G4-DNA parallel | FRET melting | – | 1 µM, K1 buffer, DNA 0.2 µM, added: ds26 10 µM | – | ΔTm | 17.9 ± 0.6 °C |
| O=C(Oc1cc(OC(=O)c2cc(O)c(O)c(O)c2)c2ccccc2c1)c1cc(O)c(O)c(O)c1 | herpes simplex virus 2 | plaque | Vero | 10 µM, added post infection | – | plaque reduction | ~40% |
| O=C(N/N=C/c1ccc2c(ccc[n+]2Cc2ccccc2)c1)c1cc(C(=O)N/N=C/c2ccc3c(ccc[n+]3Cc3ccccc3)c2)ncn1 | myc22 MYC G4-DNA parallel | FRET melting | – | 1 µM, K1 buffer, DNA 0.2 µM, added: ds26 10 µM | – | ΔTm | 7.6 ± 0.2 °C |
| C=CC(=O)N1[C@H](c2ccc3c(c2)OCO3)c2[nH]c3ccccc3c2C[C@@H]1C(=O)N1CCN(C)CC1 | human cyclin E1 N112C-3xFLAG:CDK2 | co-IP with TMT proteomics, refers to: BCLAF1 | – | concentration not given, Q9NYF8 | baseline: wild type DMSO | relative co-enrichment | 106% |
| C[n+]1ccc(/C=N/NC(=O)c2cccc(C(=O)N/N=C/c3cc[n+](C)cc3)n2)cc1 | myc22 MYC G4-DNA parallel | FRET melting | – | 1 µM, K1 buffer, DNA 0.2 µM | – | ΔTm | 5.1 ± 0.3 °C |
| Cc1ncsc1-c1ccc(C(C)NC(=O)C2CC(O)CN2C(=O)C(NC(=O)CCCCCCCCCCN2CCCC(Nc3ncc(Cl)c(Nc4ccccc4S(=O)(=O)C(C)C)n3)C2)C(C)(C)C)cc1 (stereo not drawn) | 22Rv1 | RNA-seq, refers to: SIMC1 mRNA | – | concentration not given | baseline: DMSO | log2 fold change | -1.89 |
